Published values collected from several papers.
Parts stem from different laboratories: compare values within a part only. Positions count from the first letter of the parent shown.

Set 1
Target: Histone acetyltransferase KAT6A, winged helix 2, GST fusion (KAT6A, Homo sapiens, UniProt Q92794, residues 85-181)
Technique: protein binding microarray
Form: double-stranded DNA, one strand shown
Sample: in vitro
Concentration: not given
Setting: 8-mer, flanks averaged, mean of 2 arrays, mostly near background
Baseline: not given
Direction: higher = stronger binding
Endpoint: E-score
Construct (chain): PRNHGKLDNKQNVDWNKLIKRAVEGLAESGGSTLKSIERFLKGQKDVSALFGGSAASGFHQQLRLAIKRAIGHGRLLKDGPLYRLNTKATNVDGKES
TACTGCGA: -0.0388
CGGAATCA: 0.0558
ACCAGTTC: -0.0112
CTGATGAC: -0.0955
AGCGGGTC: 0.0555
CTCATTCA: -0.041
AGGGGTGC: -0.132
CTCAAGTA: -0.233
AGTTATGG: -0.0641
ATACACTG: -0.101
AACATAAA: -0.0221
ACGGCCCC: -0.101
CGTGCGAA: 0.0452
TAGAACAA: -0.134
AAGGTATT: -0.238
ACGACGCG: -0.0091
ATCACTAG: -0.201
AAACCCAT: -0.0383
AAGAGCAA: 0.202
ACAAACAA: 0.0437

Set 2
Target: RNA binding protein fox-1 homolog 2, RRM domain, GST-SBP tag (RBFOX2, Homo sapiens, UniProt O43251-10, residues 100-194)
Technique: RNA Bind-n-Seq
Form: RNA
Sample: in vitro
Concentration: 365 nM
Setting: natural RNA segment, single round, ends assumed
Baseline: no-protein control
Direction: higher = stronger binding
Endpoint: RBNS enrichment (R)
Constant ends, left off below: GGGAGUUCUACAGUCCGACGAUC … UGGAAUUCUCGGGUGCCAA
Residues (chain): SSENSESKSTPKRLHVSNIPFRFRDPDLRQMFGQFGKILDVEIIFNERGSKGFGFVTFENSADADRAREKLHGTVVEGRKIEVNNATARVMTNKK
ACUUGACUGAAUUAUGGCUUGGCACAGUGGUUGGCGAGCCUCGUAGUAUAGUCAAAUCAAUUGCAUAAGUAAUUUAUUUUCUACUUCUUAUGUCUGUGAUAAUUGCUUUG: 0.247
UAUGUAAUGCCUAAUACUUAGUAUGUAAAUGUCACGAGAUCAUUUUUACAUUAAACGUGAAAAAAAAUCAACUUUGCCGGAUCACUUAUUUUAUACAAGAGAAUAUAUUC: 0.55
CUGGUCAUUAACUCAGUCAUGCCGAGCACCAGGGCGCUGGUUCUGAAACGGUUAAGAGAAAGGCUCUGGGCUUUGCUCCCAUCUCUGCACAGCGCACUGUGGAGCAGAGA: 1.74
CCAUGCAUGGAAAAGUGGCCUGUUGGUUCAACGUGGUUUCCUUGUACUUGAUCCUCCUGAAAUGAGAGAUUUUCCUGAGAUGACUGAGUAUGGAGAUUACCAGGCAGAUG: 15.1
AAAAGAAUAUUCAUGGCAACGUUGGUCCUUUGAGGGUGGCAUCUCUGGUUUGGAGCUAGGCAGGCUGGCCAUGGGACAGAAAGGGCAGAAAAAAGAUGGAUUUCUGCUGU: 0.846
AGCCCCUGCUCACAUCACAGCUGUCUGAAGAACAGUGAGGUGGAGUGCCUAGAACUCCCGUGGUGGUCCUGAGCAGAGAGGAGGAUGUCCUCCUGCCUGCCUGAAGGUCU: 0.33
AACAUGGGCAUUGGGUUCUAAAGGACUAACAUAAAAUCUGUGAAUUAAAAAAGCUCAAUGCAUUGUCUUGUGGAGGAUGAAUAGAUGUGAUCACUGAGACAGCCACUUGG: 0.675
CAGUCUCAGGAACUGUUGUGGUGCCCCUGAGCCCACAGUCAUCUCCAGAGUCCACCUGGAAGCCUGUUCCCCUCUCCUCGGCUCCUGGUCCACCAGUGCAUGGCAGUGCC: 0.361
ACCAGGCAGGAGCCCCGACCCCCCAGCAGCGGUGCCACUCUUCCAAGCCUCUUGGUGCACAAUAAACUAUUGCUGAAUCUUUGAACAGCUGGAAAGUAGUCUUGAGAGGC: 0.46
CUUCACUGGGUUUCUCAACCGUGGCUUUUCACCGCAGCUUGUCUGAAACUCUUAGCCUGCAGAAUUUAAGACAAUGGCAGUUUUUAUCGUGAUUUGCCUUUGAACUUGGU: 6.31
AAUAUGGAAAUCACUGCCAGAGACAGUCUAUUUUCUUUUAAUUUGUUACUACUUAGUCACAAACCCCACAUUAUUCCAGUUUGGAAUUACUUAUUAAGGAGAAUUGGAAA: 0.511
AUGUGUUUUUGUUUGUUUGUUUGUUUCAGGAGCAAUCGGUUACAUGGGAACAAGUGCCUUUGUUCGAAAAAUCUAUACUAAUGUGAAAAUUGACUAGAUAUCUGAGACAA: 0.333

Set 3
Target: Phosphate system positive regulatory protein PHO4, full length, GST-tagged (PHO4, Saccharomyces cerevisiae, UniProt P07270, residues 1-312)
Technique: competition protein-binding microarray
Form: double-stranded DNA, one strand shown
Sample: in vitro
Concentration: 2 µM
Setting: whole 60-bp probe, lowest competitor level
Added: Cbf1 competitor, 0.05 µM
Direction: higher = stronger binding
Endpoint: fluorescence intensity
Constant ends, left off below: … GTCTTGATTCGCTTGACGCTGCTG
Residues (chain): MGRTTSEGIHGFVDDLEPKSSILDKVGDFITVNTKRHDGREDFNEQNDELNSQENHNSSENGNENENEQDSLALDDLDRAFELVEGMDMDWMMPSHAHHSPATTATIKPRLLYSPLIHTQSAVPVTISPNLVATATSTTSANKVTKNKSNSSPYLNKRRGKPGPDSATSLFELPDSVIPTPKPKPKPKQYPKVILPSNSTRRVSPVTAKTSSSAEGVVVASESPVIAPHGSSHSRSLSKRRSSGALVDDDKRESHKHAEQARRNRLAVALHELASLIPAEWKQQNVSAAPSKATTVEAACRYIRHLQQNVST
TAATCGCAGTAGTTGAGCGTGCGATTTGCGCATTTG: 6620 a.u.
CGCCCTTCCTTACGGTAGATGATGACACACTAAACG: 3560 a.u.
GATCTTGATCTTACCGTCGTGACGGGCAGCCTTGAT: 4810 a.u.
AACAAGAGGTTTCGTCACAATTGCTAGGCGGTGCCA: 2720 a.u.
CATCATATATGTCGGCACGTTTTTCCATTCAGGAAA: 14700 a.u.
GCCAAAATGCACTGTCACACGCTAAAGTGCTCGAAT: 5350 a.u.
CATACCCAACCTTGAGAGGTGGGTGAAGATATTTGT: 3880 a.u.
GCCTGTCCGTTGCTGCACATGCTTGCGTAGGGCCTT: 10300 a.u.
CTTTCCCGATCTTGCACAGTGGGTGTAGCACATTTG: 4850 a.u.
CATCATTTGCCACTCCACATGACAATGTAAAAGCCA: 7490 a.u.
AAGGAACAGTTCCATCACGTGTGTTTGTTTGTTGGG: 16500 a.u.
TTTGCAGGAAACAGCCGCGTGCCAGTTTGCTCGATA: 10500 a.u.
AAAGCGGTAATTTGAACTGTGGGTGCAGATATCTAT: 4240 a.u.
TGCGCAACAACTTGTGGGGTGGGTGTATGTCTAGAA: 5970 a.u.
TTAGCGTCAAGTACAAATGTGACGAAAATTTGAGGT: 4230 a.u.
TGCTATTGATATTACGACATGTGTGCTTCTCATGAT: 9390 a.u.
AGATACATACATGAACATATGCACTTATAGCGCCCA: 5570 a.u.
GGGCACAAGGAAAAACACGTGACGAATTTCTTTTTT: 14800 a.u.
CTTTCCCGATCTTGATTAGTGGGTGTAGCACATTTG: 4790 a.u.
AAAGCGGTAATTTGGCATGTGGGTGCAGATATCTAT: 11500 a.u.
GTCTTGTCTCATTGAAAGGTGGGTGTCCCCACTTCA: 4240 a.u.
GTCTTGTCTCATTTTCACGTGCTTTTCCCCACTTCA: 15700 a.u.
CGGGGTTAAGTTTTTCACGTGAAGTGCTTGCAGCAG: 8570 a.u.
TATTTTTCTGACGGCCACGTGAGATTCCTGGTTCGA: 16400 a.u.
ACTACATGCCAGCAGCCCGTGCGGATGCCAAATTTG: 10000 a.u.

Set 4
Target: CCNE1, cyclin fold, Cln2 fusion (human)
Technique: yeast growth competition, sequencing
Sample: yeast
Setting: strong parent motif
Baseline: not given
Direction: higher = stronger binding
Endpoint: normalised enrichment score
Starting sequence: RBL2 docking peptide (human); STTRRRLFVENDS; partner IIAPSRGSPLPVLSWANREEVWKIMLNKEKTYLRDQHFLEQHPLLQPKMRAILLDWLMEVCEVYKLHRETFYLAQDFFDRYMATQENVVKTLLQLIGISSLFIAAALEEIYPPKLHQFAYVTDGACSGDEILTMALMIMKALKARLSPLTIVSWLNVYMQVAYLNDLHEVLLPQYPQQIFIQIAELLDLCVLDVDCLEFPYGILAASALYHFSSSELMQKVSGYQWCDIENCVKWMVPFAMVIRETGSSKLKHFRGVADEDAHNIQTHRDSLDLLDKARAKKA
STTRRRLFVENDE [S13E]: 6.75
STTRRRTFVENDS [L7T]: 0.154
SWTRRRLFVENDS [T2W]: 5.61
STTRRRLFVEMDS [N11M]: 5.23
STTRRRLFVELDS [N11L]: 4.84
STTRERLFVENDS [R5E]: -0.0208
STTRRRLFVENDC [S13C]: 5.49
STARRRLFVENDS [T3A]: 6.65
SKTRRRLFVENDS [T2K]: 6.88
STTRRRLFVEPDS [N11P]: 5.68
STTNRRLFVENDS [R4N]: 2.03
STTRRRLQVENDS [F8Q]: 0.516
STTRRRLFVENQS [D12Q]: 4.58
STTRRRLFLENDS [V9L]: 5.09
STTRRRLFKENDS [V9K]: 3.86
STTRRRLFVEWDS [N11W]: 5.17
STYRRRLFVENDS [T3Y]: 7.54
STTRRRLFVKNDS [E10K]: 1.58
SGTRRRLFVENDS [T2G]: 6.27
STTRRRLFVENMS [D12M]: 3.85
STTRRQLFVENDS [R6Q]: 5.53
SVTRRRLFVENDS [T2V]: 5.77
STTRRRFFVENDS [L7F]: 0.258
STTRRWLFVENDS [R6W]: 1.25
STERRRLFVENDS [T3E]: 2.22

Set 5
Target: Interferon regulatory factor 7, full length, phosphomimetic (IRF7, Homo sapiens, UniProt Q92985, residues 1-503, S101K/S471D/S472D/S475D/S476D/S477D/S483D/S484D/S487D)
UniProt Q92985, sequence (whole entry, unmodified, looked up): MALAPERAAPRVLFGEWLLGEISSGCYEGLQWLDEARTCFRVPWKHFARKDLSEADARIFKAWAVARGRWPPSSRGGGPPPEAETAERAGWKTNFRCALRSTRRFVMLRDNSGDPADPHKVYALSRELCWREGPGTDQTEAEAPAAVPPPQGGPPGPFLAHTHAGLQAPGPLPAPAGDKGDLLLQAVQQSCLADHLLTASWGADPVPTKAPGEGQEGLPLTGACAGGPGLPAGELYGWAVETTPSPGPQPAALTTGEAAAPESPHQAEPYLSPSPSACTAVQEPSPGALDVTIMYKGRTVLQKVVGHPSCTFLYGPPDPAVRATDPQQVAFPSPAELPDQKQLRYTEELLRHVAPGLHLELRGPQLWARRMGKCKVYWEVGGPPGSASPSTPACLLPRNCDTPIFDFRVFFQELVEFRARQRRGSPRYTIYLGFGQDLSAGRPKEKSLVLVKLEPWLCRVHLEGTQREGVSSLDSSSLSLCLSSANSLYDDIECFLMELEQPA
Technique: protein-binding microarray
Form: double-stranded DNA, one strand shown
Sample: in vitro
Concentration: 250 nM
Setting: 60-bp whole probe
Added: salmon DNA 0.4 mg/ml
Baseline: random background probes
Direction: higher = stronger binding
Endpoint: log fluorescence
Constant ends, left off below: GCCTAGCAC … GTCTTGATTCGCTTGACGCTGCTG
TTAGGTCTACTTCTCCTTTAGTGCTAG: 0.274 z-score
TCACCTTTCTGCCTCAGACTGTGCTAG: 0.64 z-score
GACGGACTGCGTATCCTGACGTGCTAG: -0.16 z-score
GACGGTATCAACACTGGGGACGTGCTA: -0.515 z-score
CTGGAATCAATTTATTGACCGTGCTAG: -0.165 z-score
CACATTGTGCAATCTTAATAAGTGCTA: 0.816 z-score
CCTTGTACGTCGTTTCCCAAGGTGCTA: 1.03 z-score
TCATCTGTCCCTCTGTGACTGTGCTAG: 0.16 z-score
GACGGACTGCTTTTCCTGACGTGCTAG: -0.0306 z-score
TCACAACTCGCCTTTTTTACTGTGCTA: 0.177 z-score
AATTTTTACTTTCTGAATGCGTGCTAG: 0.91 z-score
GACGGTATCGATTTCGGGACGTGCTAG: 3.39 z-score
GACGGTCTCCTTTTCCTGAAGTGCTAG: 1.65 z-score
AAGTTTTTCATTTTTTTTCAGTGCTAG: 0.854 z-score
AGTCTTCTCCTCTAGGTTCTCGTGCTA: 0.222 z-score
GACGGTTTCGGTAGCGGGACGTGCTAG: 3.52 z-score
GACGATAACAGTATCGAGACGTGCTAG: 0.113 z-score
TTAGATTTCAGGCTGGATTAGTGCTAG: -0.241 z-score
GACGGTTTCGGTAACGGGACGTGCTAG: 4.03 z-score
TTTTCTCTCCCATTCTGAATGTGCTAG: 2.07 z-score
AGGTTTCTATATTTGCTTCAGTGCTAG: 5.52 z-score
GACGGTATCAACTTTCGGGACGTGCTA: 0.0267 z-score
TTAGATTTCGGGTTTCGATGAGTGCTA: 3.05 z-score
TTAGAACTGAGTATAGATTAGTGCTAG: -0.138 z-score
TTAGATTTGAGTTCCGATTAGTGCTAG: 1.57 z-score

A few entries again (set 4):
STTRRRLQVENDS [F8Q]: 0.516
STTRRRLFVENQS [D12Q]: 4.58
STTRRRLFLENDS [V9L]: 5.09
STTRRRLFKENDS [V9K]: 3.86
STTRRRLFVEWDS [N11W]: 5.17
STYRRRLFVENDS [T3Y]: 7.54
STTRRRLFVKNDS [E10K]: 1.58
SGTRRRLFVENDS [T2G]: 6.27
STTRRRLFVENMS [D12M]: 3.85
STTRRQLFVENDS [R6Q]: 5.53
SVTRRRLFVENDS [T2V]: 5.77
STTRRRFFVENDS [L7F]: 0.258
